Experimental data from different studies.
Target: Cholinesterase (BCHE, Homo sapiens, UniProt P06276)
Sequence of UniProt P06276 (whole entry, looked up): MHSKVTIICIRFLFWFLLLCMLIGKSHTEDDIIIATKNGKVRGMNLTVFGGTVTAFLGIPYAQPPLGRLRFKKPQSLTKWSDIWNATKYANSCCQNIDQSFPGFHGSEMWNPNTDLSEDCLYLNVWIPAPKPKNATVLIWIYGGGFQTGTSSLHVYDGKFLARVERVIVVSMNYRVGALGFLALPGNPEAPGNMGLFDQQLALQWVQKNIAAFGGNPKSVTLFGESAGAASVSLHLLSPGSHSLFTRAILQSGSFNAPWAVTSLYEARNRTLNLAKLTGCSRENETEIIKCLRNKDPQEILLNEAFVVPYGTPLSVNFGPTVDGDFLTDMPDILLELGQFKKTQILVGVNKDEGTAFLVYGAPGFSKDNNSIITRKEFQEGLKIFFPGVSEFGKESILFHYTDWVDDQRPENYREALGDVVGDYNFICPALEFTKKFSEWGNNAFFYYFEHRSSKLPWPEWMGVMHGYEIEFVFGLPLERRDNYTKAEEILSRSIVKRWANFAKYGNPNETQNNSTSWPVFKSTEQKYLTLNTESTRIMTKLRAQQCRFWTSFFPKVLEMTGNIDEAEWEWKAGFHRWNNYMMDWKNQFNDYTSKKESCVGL
Effect on: enzyme activity
Mode: inhibitor

Compound = O=C(O)/C=C/c1cc(O)cc(O)c1; assay = Ellman; IC50 = 433 µM
Compound = S=C(NCc1ccccn1)NCc1ccccn1; assay = Ellman; IC50 = 317 µM
Compound = CCS(=O)(=O)N1CCN(CC(=O)Nc2ccc(/C=C/C(=O)c3ccc(OC)c(OC)c3)cc2)CC1; assay = Ellman; IC50 = > 1000 µM
Compound = O=C(NCc1ccc[n+](Cc2ccc(Cl)cc2Cl)c1)c1ccc(CN2C(=O)c3ccccc3C2=O)cc1; assay = Ellman; IC50 = 7.31 µM
Compound = Oc1ccccc1-c1nc(-c2ccccc2O)n(-c2ccc(-c3nnc4n3N=C(c3ccccc3)CS4)cc2)n1; assay = Ellman; IC50 = 3.66 µM
Compound = CC12CC(c3ccoc3)OC(=O)C1(O)CCC1(C)C2C2OC(=O)C1(O)C1OC21 (centres unmarked); assay = Ellman; IC50 = 813 µM
Compound = NNC(=O)c1ccc(-n2nc(-c3ccccc3O)nc2-c2ccccc2O)cc1; assay = Ellman; IC50 = 0.094 µM
Compound = O=C(O)CCCC(=O)O; assay = Ellman; IC50 = 931 µM
Compound = COC1(c2ccccc2)CC(=O)c2c(cc3c(c2O)C=CC(C)(C)O3)O1 (centres unmarked); assay = Ellman; IC50 = > 200 µM
Compound = COc1cc2c(cc1OC)C(=O)/C(=C\c1ccc(N(C)C)cc1)C2; assay = Ellman; IC50 = > 1000 µM
Compound = CC(C)(O)c1cc2c(ccc3c(=O)cc(-c4ccccc4)oc32)o1; assay = Ellman; IC50 = > 200 µM
Compound = COC(=O)c1ccc(-n2nc(-c3ccccc3O)nc2-c2ccccc2O)cc1; assay = Ellman; IC50 = 0.45 µM
Compound = COc1cc2c(cc1OC)C(=O)/C(=C\c1ccc(Br)cc1)C2; assay = Ellman; IC50 = > 1000 µM
Compound = O=C(NCc1ccc[n+](Cc2ccccc2Cl)c1)c1ccc(CN2C(=O)c3ccccc3C2=O)cc1; assay = Ellman; IC50 = 4.34 µM
Compound = COc1cc2c(cc1OC)C(=O)C(=Cc1ccc(N3CC[N+](C)(C)CC3)cc1)C2; assay = Ellman; IC50 = 4 µM
Compound = COc1cc2c(=O)cc(-c3ccccc3)oc2c2c1OC(C)(C)C=C2; assay = Ellman; IC50 = 1.16 µM
Compound = Cc1ccccc1C[n+]1cccc(CNC(=O)c2ccc(CN3C(=O)c4ccccc4C3=O)cc2)c1; assay = Ellman; IC50 = 0.2 µM
Compound = Fc1ccc(N2CCN(Cc3nnc(-c4ccccc4)o3)CC2)cc1; assay = Ellman; IC50 = > 10 µM
Compound = COc1ccc(-c2coc3cc(OCCN4CCCC[C@@H]4C)ccc3c2=O)cc1; assay = Ellman; IC50 = 25.8 µM
Compound = CN1CC[C@]2(C)c3cc(OC(=O)Nc4ccccc4)ccc3NC12 (single isomer, unassigned; (+)); assay = Ellman; setting = pH 8, with preincubation; IC50 = > 10 µM
Compound = COc1cc2c(cc1OC)C(=O)/C(=C\c1ccc([N+](C)(C)C)cc1)C2; IC50 = > 1000 µM
Compound = C#CCN1CCN(CCCOc2ccc3nc(Cl)c(/C=[N+](\[O-])C(C)(C)C)cc3c2)CC1; assay = Ellman; IC50 = 8.38 µM
Compound = COc1c(C(=O)/C=C/c2ccccc2)ccc2occc12; assay = Ellman; IC50 = 58.8 µM
Compound = COc1cc2c(cc1OC)C(=O)/C(=C\c1ccccc1)C2; assay = Ellman; IC50 = > 1000 µM
Compound = COc1c(C(=O)/C=C(\O)c2ccccc2)ccc2c1C=CC(C)(C)O2; assay = Ellman; IC50 = > 200 µM
Compound = O=[N+]([O-])c1cccc(C2=Nn3c(nnc3-c3ccc(-n4nc(-c5ccccc5O)nc4-c4ccccc4O)cc3)SC2)c1; assay = Ellman; IC50 = 6.88 µM
Compound = CC1(C)C=Cc2c(cc3oc(-c4ccccc4)cc(=O)c3c2O)O1; assay = Ellman; IC50 = 4.01 µM
Compound = COc1cc2c(cc1OC)C(=O)/C(=C\c1ccc(N3CCCCC3)cc1)C2; assay = Ellman; IC50 = 562 µM
Compound = COc1ccc(C2=Nn3c(nnc3-c3ccc(-n4nc(-c5ccccc5O)nc4-c4ccccc4O)cc3)SC2)cc1; assay = Ellman; IC50 = 0.13 µM

Excerpt of the above:
Compound = Oc1ccccc1-c1nc(-c2ccccc2O)n(-c2ccc(-c3nnc4n3N=C(c3ccccc3)CS4)cc2)n1; assay = Ellman; IC50 = 3.66 µM
Compound = CC12CC(c3ccoc3)OC(=O)C1(O)CCC1(C)C2C2OC(=O)C1(O)C1OC21 (centres unmarked); assay = Ellman; IC50 = 813 µM
Compound = NNC(=O)c1ccc(-n2nc(-c3ccccc3O)nc2-c2ccccc2O)cc1; assay = Ellman; IC50 = 0.094 µM
